# Experimental data gathered from unrelated publications.
# “And” joins repeats or separate records; there may be more than shown. Numbers after ± are the reported error.
Compound,test,system,conditions,scale,quantity,result
Oc1ccccc1-c1nnc(S)o1,"CoA-CPM signal reduction, CPM fluorescence thiol",cell-free biochemical,"assay interference counter-screen, added: CoA replacing acetyl-CoA",,IC50,160 ± 10 µM
CC(C)NCC(O)c1ccc(O)c(O)c1 (centres unmarked),,"ventricular cardiomyocytes, C57BL/6 mouse","dose not given, 0.26 s",,sarcomere length,1.65 µm
N#Cc1ccc2c(c1)[C@H]1CCCN(C(=O)c3ccc4[nH]cnc4c3)[C@H]1C2,refers to: diastolic blood pressure,human,"20 mg once daily, day 28, adjusted mean",baseline: placebo,change from baseline,2.2 mmHg
CNCc1cc(-c2ccccc2F)n(S(=O)(=O)c2cccnc2)c1,gastric acid secretion,dog Heidenhain pouch,"oral, 3 mg/kg, 24 h after dosing, added: histamine",,inhibition,61.9%
COc1nc(-c2cc(C)c(N[C@@H](C)c3cc(F)cc(F)c3)nn2)ccc1-n1cnc(C)c1,refers to: Aβ40,"rat Sprague-Dawley male, CSF","oral, 50 mg/kg daily for 9 days, 4 h after dose",baseline: vehicle,change in level,78%
CO[C@H]1C[C@@H]2CC[C@@H](C)[C@@](O)(O2)C(=O)C(=O)N2CCCC[C@H]2C(=O)O[C@H]([C@H](C)C[C@@H]2CC[C@@H](OC(=O)NCCOCCOCCOCCOCCOCCOCCOCCOCCC(=O)N3CCc4cc(Cn5nc(-c6ccc7oc(N)nc7c6)c6c(N)ncnc65)ccc4C3)[C@H](OC)C2)C[C@@H](O)[C@H](C)/C=C(\C)[C@@H](O)[C@@H](OC)C(=O)[C@H](C)C[C@H](C)/C=C/C=C/C=C/1C,RECIST v1.1,human,dose not given,,tumour reduction,78%
C[C@H]1O[C@@H](O[C@H]2CC[C@@]3(C)[C@@H](CC[C@]4(C)[C@@H]3C=C[C@]35OC[C@@]6(CCC(C)(C)C[C@H]63)[C@@H](O)C[C@]54C)[C@]2(C)CO)[C@H](O)[C@@H](O[C@@H]2O[C@H](CO)[C@@H](O)[C@H](O)[C@H]2O)[C@H]1O,"Western blot, refers to: PGC-1α","chronic-plus-binge ethanol-fed mice, liver","dose not given, dose level -H, unit not given",baseline: β-actin,protein level,1.04 and 0.534 and 1.07
N#CCC1CCN(c2nc(Nc3ccc(N4CCC(O)CC4)cc3)c3c(=O)[nH]ncc3n2)CC1,Olink multiplex,"human, serum","80 mg, day 15, unit not given",baseline: baseline,IL-18 level change,-1.37
C[C@H](Oc1ccc(Br)cc1-c1ccon1)C(=O)O,muscle velocity recovery cycle,"human, tibialis anterior muscle","400 mg once daily, first response peak at 15 Hz, multiple ascending dose",,difference from placebo,6.61%
c1ccc(-c2n[nH]cc2-c2ccnc3ccccc23)nc1,"kinase binding, competitor, MIB/MS competition, refers to: SSK2",Candida albicans cell lysate,1 µM,baseline: DMSO,log2 fold change,0.881
CC(=O)Oc1cc2c(s1)CCN(C(C(=O)C1CC1)c1ccccc1F)C2 (centres unmarked),"platelet aggregation, light transmittance aggregometry","human, platelet-rich plasma","dose not given, 15 min, IPA above 90 %, added: TRAP 5 µM",baseline: patients,patients with IPA above threshold,0%
CO[C@@H]1[C@@H](OC(N)=O)[C@@H](O)[C@H](Oc2ccc3c(O)c(NC(=O)c4ccc(O)c(CC=C(C)C)c4)c(=O)oc3c2C)OC1(C)C,,"Brca1 wild-type MEFs, mouse",50 µM,,colony survival,68.2% and 85.2% and 70.2% and 82.6% and 81.4%
OC(CCN1CCCCC1)(c1ccccc1)C1CC2C=CC1C2 (centres unmarked),resting-state EEG,healthy elderly humans,"oral, 4 mg, eyes open, LS mean",baseline: baseline,"EEG beta power, O2 Pz, change in",-0.6%
O=C(NC[C@H]1CN(c2ccc(N3CCOCC3=O)cc2)C(=O)O1)c1ccc(Cl)s1,,"human moderate renal impairment, plasma","10 mg, geometric mean, unit not given",baseline: baseline,maximum prothrombin time prolongation,8.34
CN(C)C(=O)c1cc2cnc(Nc3ccc(N4CCNCC4)cn3)nc2n1C1CCCC1,"RNA-seq GSEA, refers to: HALLMARK_UNFOLDED_PROTEIN_RESPONSE gene set",MB002 tumour,concentration not given,"baseline: vehicle, direction not given",enrichment score,0.204
O=S(=O)(NCc1ccccc1)c1ccc(Br)c2nsnc12,"CoA-CPM signal reduction, CPM fluorescence thiol",cell-free biochemical,"assay interference counter-screen, added: CoA replacing acetyl-CoA",,IC50,> 125 µM
C[C@@H](O)CCOC(=O)C[C@@H](C)O,refers to: Asx,"human, plasma","60 min, log2-transformed values",,metabolite level,3.67 ± 0.35 µmol/L
C[C@H]1C[C@H]2CSC(N)=N[C@@]2(c2nc(NC(=O)c3ccc(OC(F)F)cn3)cs2)CO1,refers to: Aβx-40,"healthy adults, plasma","50 mg once daily, day 14",baseline: placebo,percent change from baseline,-59.6%
Cn1cc(Nc2nccc(-c3ccc4c(c3)CN(C3COC3)CC[C@H]4NC(=O)c3cn(C(C)(C)C)nn3)n2)cn1,"refers to: D-myo-inositol (1,4,5)-trisphosphate Biosynthesis","splenic B cells, mouse","in vivo, 30 mg/kg, IgD-activated B cells","baseline: vehicle, positive = activation",pathway activation z-score,1.34
O=C(O)CNC(=O)Cc1ccccc1,,"ventricular cardiomyocytes, C57BL/6 mouse","dose not given, 0.816 s",,sarcomere length,1.66 µm
CCCCCCCC[C@H](NC(=O)[C@@H]1C[C@H](C)CN1C(=O)/C=C/[C@@H](C)CC)C(=O)N[C@H](C(=O)NC(C)(C)C(=O)N[C@@H](CC(C)C)C(=O)N[C@@H](CC(C)C)C(=O)NC(C)(C)C(=O)NC(C)(C)C(=O)NCCC(=O)N[C@@H](C)CN(C)C)[C@H](O)C(C)C,,small unilamellar vesicles,concentration not given,,calcein leakage,34.8%
c1ccc(CNc2nc(-c3ccccc3)no2)cc1,"CoA-CPM signal reduction, CPM fluorescence thiol",cell-free biochemical,"assay interference counter-screen, added: CoA replacing acetyl-CoA",,IC50,> 125 µM
C[C@@H](NC(=O)N1C(=O)[C@H](Cc2ccnc(N)c2)[C@H]1C(=O)O)C1CCCCC1,,"human, plasma","continuous intravenous infusion, 2.25 mg/kg/h, days 1 to 6 of 5-day infusion, mean",,maximum prothrombin time,13.7 s
OCC(O)CO,targeted LC-MS metabolomics,"Mus musculus male Gpd2 knockout, liver","drinking water, 5% w/v, 2 days",,hexose phosphate concentration,0.572 mM and 0.633 mM and 0.614 mM and 0.372 mM and 0.656 mM
CCO[C@H]1CCN(Cc2c(OC)cc(C)c3[nH]ccc23)[C@H](c2ccc(C(=O)O)cc2)C1,,"PNH patients, blood","oral, 25 mg then 100 mg, week 2, mean percent change",baseline: baseline,PNH RBC clone size,88.8%
COc1ccc(-c2cncc(N[C@@H](C)c3cccc(NC(=O)c4cncc(C)c4)c3)n2)cc1OC,refers to: rno-miR-342-3p,"rat SU5416/hypoxia model, lung",dose not given,baseline: SU5416/hypoxia vehicle,fold change,0.8
Cc1n[nH]c2ccc(-c3cc(OC[C@@H](N)Cc4ccccc4)cnc3-c3ccoc3)cc12,"kinase binding, competitor, MIB/MS competition, refers to: MCK1",Candida albicans cell lysate,100 nM,baseline: DMSO,log2 fold change,-0.0754
c1ccc(Nc2nc(-c3ccccc3)no2)cc1,"CoA-CPM signal reduction, CPM fluorescence thiol",cell-free biochemical,"assay interference counter-screen, added: CoA replacing acetyl-CoA",,IC50,> 125 µM
O=C1O[C@H]([C@@H](O)CO)C(O)=C1O,hydroxyl radical scavenging,,200 µM,,inhibition,65.6%
CN(Cc1cc(C(F)(F)F)cc(C(F)(F)F)c1)c1nc2ccccc2c(=O)s1,HPLC-MS,,"pH 10.2, added: 50 mM N-α-acetyl-lysine",,pseudo-first-order rate constant,0 h⁻¹
CC(C)c1ccc(S(=O)(=O)Nc2ccc(O)c(Br)c2)cc1,"CoA-CPM signal reduction, CPM fluorescence thiol",cell-free biochemical,"assay interference counter-screen, added: CoA replacing acetyl-CoA",,IC50,> 125 µM
C[C@@H]1CCC[C@H](n2cnc(-c3cc(Cl)ccc3-n3cc(Cl)nn3)cc2=O)c2cc(ccn2)-c2c(cnn2C(F)F)NC1=O,,cynomolgus monkey plasma,"IC2× aPTT, Actin FS reagent",,concentration for aPTT prolongation,1200 nM
CC(c1cc2ccccc2s1)N(O)C(N)=O (centres unmarked),,human blood,"3 µM, added: A23187",,PGD2 level,7 ± 7 pg/mL
COc1cc(F)c([C@@H]2CNC(=O)[C@H]2NC(=O)Nc2ccccc2)c(F)c1,terminal haemodynamics,"rat, permanent coronary occlusion MI","1 mg/kg, 1008 h, 6 weeks post-MI",,mean arterial pressure,106 ± 10 mmHg
NC(=O)c1cnc2[nH]ccc2c1N[C@@H]1[C@@H]2CC3C[C@H]1C[C@@](O)(C3)C2,"CD8+ effector T cells, flow cytometry","Caucasian humans, peripheral blood",200 mg single dose,baseline: baseline,percent change,0.47%

# For quick reference, copied from above:
Compound,test,system,conditions,scale,quantity,result
N#CCC1CCN(c2nc(Nc3ccc(N4CCC(O)CC4)cc3)c3c(=O)[nH]ncc3n2)CC1,Olink multiplex,"human, serum","80 mg, day 15, unit not given",baseline: baseline,IL-18 level change,-1.37
C[C@H](Oc1ccc(Br)cc1-c1ccon1)C(=O)O,muscle velocity recovery cycle,"human, tibialis anterior muscle","400 mg once daily, first response peak at 15 Hz, multiple ascending dose",,difference from placebo,6.61%
c1ccc(-c2n[nH]cc2-c2ccnc3ccccc23)nc1,"kinase binding, competitor, MIB/MS competition, refers to: SSK2",Candida albicans cell lysate,1 µM,baseline: DMSO,log2 fold change,0.881
